Results gathered from unrelated publications.
Lines come from different studies, so protocols differ. Numbers after ± are the reported error.

Compound | test | test system | conditions | how to read | measurement | value
Cc1nc(Nc2ncc(C(=O)Nc3c(C)cccc3Cl)s2)cc(N2CCN(CCO)CC2)n1 |  | male C57BL/6 mouse wild type, plasma | oral, 10 mg/kg |  | AUC(0-inf) | 442 ± 152 ng·h/mL
COc1cccc(CN)c1O |  | C57BL/6N mouse, male, plasma | intraperitoneal, 200 mg/kg |  | elimination half-life | 0.61 h
Oc1ccc(/C=C/c2cc(O)cc(O)c2)cc1 | cytochrome c release, ELISA | BALB/cByJ female mouse liver mitochondria | 30 min | relative to: alamethicin maximal release | EC20 | > 200 µM
COc1cc(/C=C/C(=O)OC2C(O)CC(O)(C(=O)O)CC2O)ccc1O (centres unmarked) |  | human, fasted baseline, cerebrospinal fluid |  |  | median concentration | 1.8 nM
CC(=O)Oc1ccc(C(c2ccc(OC(C)=O)cc2)c2ccccn2)cc1 | mitochondrial swelling | BALB/cByJ female mouse liver mitochondria | 30 min, together with: succinate + rotenone | relative to: CaCl2 maximal swelling | EC20 | > 400 µM
Cc1cc(C(=O)NC(C)(C)COc2cccc3c2C(N)=NS(=O)(=O)N3)cc(C)n1 |  | male Sprague-Dawley rat, plasma | oral, 10 mg/kg, single dose |  | bioavailability | 0.36%
Cn1c(-c2ccc(C(N)=O)cc2F)nnc1C(C)(C)Oc1c(F)cc(Cl)cc1F |  | healthy young Japanese subjects, plasma | oral, 50 mg once daily, day 18, 14 days dosing |  | half-life range | 12.3 to 31.7 h
Cc1ccccc1-c1cc(N2CCN(C)CC2)ncc1N(C)C(=O)C(C)(C)c1cc(C(F)(F)F)cc(C(F)(F)F)c1 | CLint with/without CYP3A4 inhibitor | human liver microsomes |  |  | CYP3A4 contribution to metabolism | 95%
CC(C)[C@H](N)C(=O)OCC1(CO)C/C1=C/n1cnc2c(=O)[nH]c(N)nc21.Cl (mixture of isomers) | item: prodrug | Swiss-Webster mouse (male), plasma | intravenous, 24.6 mg/kg, two-compartment model |  | elimination half-life | 5.02 h
NCCCC[C@@H]1NC(=O)[C@@H](Cc2c[nH]c3ccccc23)NC(=O)[C@H](c2ccccc2)NC(=O)[C@@H]2C[C@@H](OC(=O)NCCN)CN2C(=O)[C@H](Cc2ccccc2)NC(=O)[C@H](Cc2ccc(OCc3ccccc3)cc2)NC1=O | radioimmunoassay | healthy human male volunteers, plasma | subcutaneous, 10 µg |  | alpha half-life | 2 ± 0.5 h
CC(CC(=O)O)C(=O)O (centres unmarked) |  | human hemodialysis patients, plasma ultrafiltrate | pre-treatment | relative to: hemodialysis over normal subjects | free concentration ratio | 91
CC[C@H](C)[C@H](NC(=O)[C@@H](NC(=O)[C@H](CS)NC(=O)[C@H](C)NC(=O)[C@H](CCCNC(=N)N)NC(=O)[C@H](CCCNC(=N)N)NC(=O)[C@H](CC(N)=O)NC(=O)[C@H](CCCNC(=N)N)NC(=O)[C@H](C)NC(=O)[C@H](CS)NC(=O)[C@H](CC(C)C)NC(=O)[C@@H](NC(=O)[C@@H](NC(=O)[C@H](CS)NC(=O)[C@H](CCCCN)NC(=O)[C@@H](N)CCCNC(=N)N)C(C)C)[C@@H](C)CC)C(C)C)C(=O)N[C@@H](CC(C)C)C(=O)N[C@@H](CS)C(=O)N[C@@H](CCCNC(=N)N)C(=O)O | LC-MS | PBS | 0.1 mg/mL |  | single disulfide form | 0%
Cc1cccc(-c2nc(Nc3ccc4c(c3)OCO4)c3ccccc3n2)n1 |  | mouse, CD1, plasma | oral, 10 mg/kg |  | t1/2 | > 3 h
COc1cccc(-c2ccc(NC(=O)C3=C(C(=O)O)CCC3)c(F)c2)c1 |  | human, male, plasma | oral, 50 mg once daily, day 13, geometric mean, pre-dosed |  | AUC(0-24h) | 166000 ng·h/mL
CN(C)C/C=C/C(=O)Nc1cc2c(Nc3ccc(F)c(Cl)c3)ncnc2cc1O[C@H]1CCOC1 |  | human, plasma | oral, 20 mg once daily, day 27, geometric mean |  | Vz/F at steady state | 3160 L
C[C@@H](O)[C@H]1C(=O)N2C(C(=O)O)=C(S[C@@H]3CN[C@H](C(=O)N(C)C)C3)[C@H](C)[C@H]12 |  | pig, Danish Landrace, plasma | intravenous, 1000 mg over 10 min, 450 min dosing interval, together with: 0.125 µg/mL MIC | relative to: dosing interval | time above MIC | 90%
CCCC[C@@H]1NC(=O)[C@@H](NC(=O)[C@H](CCC(=O)O)NC(=O)CNC(=O)CN2CCN(CC(=O)O)CCN(CC(=O)O)CCN(CC(=O)O)CC2)CCCCNC(=O)C[C@@H](C(N)=O)NC(=O)[C@H](C(C)C)NC(=O)[C@@H]2CCCN2C(=O)[C@H](CCCNC(=N)N)NC(=O)CNC(=O)[C@H](Cc2c[nH]c3ccccc23)NC(=O)[C@H](CCCNC(=N)N)NC(=O)[C@@H](Cc2ccccc2)NC(=O)[C@H](Cc2c[nH]cn2)NC(=O)[C@H](CCC(=O)O)NC1=O [indium-111 labelled] |  | normal C57 mice, muscle | intravenous, 0.037 MBq, 4 h |  | tissue uptake | 0.03 ± 0.02 %ID/g
CCOC(=O)[N-]c1cn(N2CCOCC2)n[o+]1 | mitochondrial swelling | BALB/cByJ female mouse liver mitochondria | 30 min, together with: succinate + rotenone | relative to: CaCl2 maximal swelling | EC20 | > 400 µM
CCN(CC)CCNC(=O)c1c(C)[nH]c(/C=C2\C(=O)Nc3ccc(F)cc32)c1C |  | human, plasma | oral, 20 mg/m2, day 28 |  | median trough plasma concentration | 46.7 ng/mL
Clc1ccc(COC(Cn2ccnc2)c2ccc(Cl)cc2Cl)cc1 (centres unmarked) | mitochondrial swelling | BALB/cByJ female mouse liver mitochondria | 30 min, together with: succinate + rotenone | relative to: CaCl2 maximal swelling | EC20 | 30.5 µM
CNC(=O)c1cc(Oc2ccc(NC(=O)Nc3ccc(Cl)c(C(F)(F)F)c3)cc2)ccn1 | LC-MS/MS | nude mouse subcutaneous tumour model, tumour tissue | intratumoral, 2 mg/kg, PDC 3 miR-3609 + EPAS-1 mutant |  | t1/2 | 26.7 ± 6.89 h
CCN1CCN(c2ccc(Nc3cc(N(C)C(=O)Nc4c(Cl)c(OC)cc(OC)c4Cl)ncn3)cc2)CC1 | LC-MS/MS | juvenile male Crl:WI(Han) rats, plasma | oral gavage, 0.3 mg/kg/day, postnatal day 17 |  | AUC(0-t) | 103 ng·h/mL

Compound | test | test system | conditions | how to read | measurement | value
Nc1cc(F)ccc1NC(=O)c1ccc(CNC(=O)/C=C/c2cccnc2)cc1 |  | Japanese patients, plasma | oral, 40 mg, cycle 1 day 1 |  | AUC(0-tau) | 6760 ng·h/mL
C[C@@]12C[C@@]3(O)O[C@@H](O1)[C@]1(COC(=O)c4ccccc4)[C@H]3C[C@@]12O[C@@H]1O[C@H](CO)[C@@H](O)[C@H](O)[C@H]1O |  | extracted rat plasma, autosampler | 45.0 ng/mL, 24 h, 4 °C, post-preparative stability, low QC |  | accuracy | 100 % nominal
CC(=O)O[C@H]1C(=O)[C@@]2(C)[C@H]([C@H](OC(=O)c3ccccc3)[C@]3(O)C[C@H](OC(=O)[C@H](O)[C@@H](NC(=O)c4ccccc4)c4ccccc4)C(C)=C1C3(C)C)[C@]1(OC(C)=O)CO[C@@H]1C[C@@H]2O |  | patients | i.v., 200 mg/m^2, 3 h, together with: lenvatinib 4 mg twice daily, carboplatin |  | end-of-infusion concentration | 7270 ± 2100 ng/mL
CO/N=C1\C[C@]2(C[C@@H]3C[C@@H](C/C=C(\C)C[C@@H](C)/C=C/C=C4\CO[C@@H]5[C@H](O)C(C)=C[C@@H](C(=O)O3)[C@]45O)O2)O[C@H](/C(C)=C/C(C)C)[C@H]1C | HPLC | lamb, cranial jejunum mucosa | intraruminal, 0.2 mg/kg, 0.5 days post-treatment |  | drug concentration | 231 ± 83 ng/g
CCCCC1(CCCC)CN(c2ccccc2)c2cc(SC)c(OCC(=O)N[C@@H](C(=O)NCC(=O)O)c3ccccc3)cc2S(=O)(=O)C1 |  | human, plasma | oral, 10 mg once daily, day 14, geometric mean |  | AUC(0-t) | 1.36 ng·h/mL
CNC(=O)c1ccc(-c2cnc3ncc(Cc4ccc5ncccc5c4)n3n2)cc1F |  | human, mild hepatic impairment (Child-Pugh A), plasma | oral, 200 mg single dose |  | Vz/F (geometric mean) | 324 L
CO/N=C1\C[C@]2(C[C@@H]3C[C@@H](C/C=C(\C)C[C@@H](C)/C=C/C=C4\CO[C@@H]5[C@H](O)C(C)=C[C@@H](C(=O)O3)[C@]45O)O2)O[C@H](/C(C)=C/C(C)C)[C@H]1C | HPLC, non-compartmental | Corriedale lambs, parasitized, plasma | subcutaneous, 0.2 mg/kg |  | MRT | 141 ± 18.2 h
CS(=O)(=O)n1cc2c(n1)CN([C@H]1CO[C@H](c3cc(F)ccc3F)[C@@H](N)C1)C2 |  | healthy male human, plasma | oral, 12.5 mg, fasted, geometric mean |  | AUC(0-24h) | 4.2 µM·h
O=C(Nc1ccc(N2C(=O)[C@@H]3[C@H](C2=O)[C@@H]2C=C[C@H]3C2)c(Cl)c1)c1ccccn1 |  | rat, hepatic portal plasma | oral, 10 mg/kg |  | AUC(0-6 h) | 0.848 µM·h
CC1=C2C[C@H]3[C@@H](CC[C@@H]4C[C@H](NS(C)(=O)=O)CC[C@@]43C)[C@@H]2CC[C@@]2(C1)O[C@@H]1C[C@H](C)CN[C@H]1[C@H]2C |  | patients, plasma | oral, 160 mg single, day -7, cycle 1 |  | Tmax | 4.52 h
COc1ccc(OCC2=C(C(F)F)C(=O)c3ccccc3C2=O)cc1C(F)(F)F | cyclic voltammetry | DMSO | first wave, vs Ag/AgCl |  | cathodic peak potential | -0.326 V
C[C@H](Oc1ccc(-c2nc(-c3ccc4[nH]cnc4c3)no2)cc1C(F)(F)F)C(F)(F)F |  | cynomolgus monkey, aneurysm model, plasma | 0.1 mg/kg once daily, 4 h post-dose, 12 months dosing |  | plasma concentration | 20 ± 1.3 nM
COc1cccc(N2CCN(C3=Nc4c(F)cccc4[C@H](CC(=O)O)N3c3cc(C(F)(F)F)ccc3OC)CC2)c1 | UHPLC-MS/MS | healthy women, plasma | intravenous infusion, 480 mg single dose, 60 min infusion, HPβCD formulation |  | MRT | 7.21 ± 1.71 h
CC(C)(c1ccc(O)cc1)c1ccc(O)cc1 | GC-MS | exposure tank water with snails, charcoal-filtered tap water | 100 ng/L nominal, 22 °C |  | half-life | 3.03 h
CC[C@H](C)C(=O)O[C@H]1C[C@@H](C)C=C2C=C[C@H](C)[C@H](CC[C@@H]3C[C@@H](O)CC(=O)O3)[C@H]21 | cytochrome c release, ELISA | BALB/cByJ female mouse liver mitochondria | 30 min | relative to: alamethicin maximal release | EC20 | 118 µM
COc1cc(CO)c(-c2ccc3c(c2O)[C@@H](C)N[C@H](C)C3)c2cccc(O)c12 | metabolic stability | male rat, liver microsomes | 1 µM |  | microsomal CLint | < 11.6 µL/min/mg
Nc1ccc(S(=O)(=O)c2ccc(N)cc2)cc1 | cytochrome c release, ELISA | BALB/cByJ female mouse liver mitochondria | 30 min | relative to: alamethicin maximal release | EC20 | > 400 µM
CCCCNC(=O)CCC(C(=O)[O-])N1CCN(CC(=O)[O-])CCN(CC(=O)[O-])CCN(CC(=O)[O-])CC1.[67Ga+3] (centres unmarked) | RP-TLC | murine plasma | 3 h, 37 °C, 5% CO2 |  | intact radiolabelled complex | 96.1 ± 0.4%
Cc1cn([C@H]2C[C@H](N=[N+]=[N-])[C@@H](CO)O2)c(=O)[nH]c1=O | cytochrome c release, ELISA | BALB/cByJ female mouse liver mitochondria | 30 min | relative to: alamethicin maximal release | EC20 | > 200 µM
O=C(Cc1cccc(OC(F)(F)F)c1)Nc1ccc(CCCCc2nnc(NC(=O)Cc3ccccn3)s2)nn1 |  | human patients, plasma | oral, 250 mg three times daily fasted, cycle 1 day 15 steady state |  | AUC(0-8h) | 4630 ng·h/mL
CC1(C)C(/C=C/C=C/C=C/C=C2\N(CCCCS(=O)(=O)O)c3ccc4ccccc4c3C2(C)C)=[N+](CCCCS(=O)(=O)[O-])c2ccc3ccccc3c21 |  | human serum in agar phantom | 1 h, room temperature, 21 MHz, gain 40 dB | relative to: India Ink | photoacoustic signal slope | 0.06 ± 0.002 µM⁻¹
COC(=O)c1ccc(O)cc1 | cytochrome c release, ELISA | BALB/cByJ female mouse liver mitochondria | 30 min | relative to: alamethicin maximal release | EC20 | > 200 µM
